Experimental data of several laboratories.
Every numbered part comes from another study and shows a few of its results, in no order. Substitutions count along the parent as printed.

Series 1 — target: CCND1, cyclin fold, Cln2 fusion (human); technique: yeast growth competition, sequencing; sample: yeast; notes: weak parent motif; baseline: not given; direction: higher = stronger binding
Parent: CABLES2 docking peptide (human); ICAKRSLCAAFSV; partner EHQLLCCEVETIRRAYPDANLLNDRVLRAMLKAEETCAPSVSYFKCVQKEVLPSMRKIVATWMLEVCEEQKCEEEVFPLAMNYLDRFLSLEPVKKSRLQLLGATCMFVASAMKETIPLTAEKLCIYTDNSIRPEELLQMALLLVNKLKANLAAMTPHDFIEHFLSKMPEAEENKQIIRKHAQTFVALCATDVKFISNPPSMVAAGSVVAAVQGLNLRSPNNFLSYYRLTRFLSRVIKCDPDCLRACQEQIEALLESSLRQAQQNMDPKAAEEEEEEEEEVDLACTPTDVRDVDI
Variant | normalised enrichment score
K4A | -0.206
C2A | -0.167
F11A | -0.101
S12A | 0.0814
S6A | 0.511

Series 2 — technique: aptamer microarray, sandwich; molecule type: DNA with 2'F-ANA; sample: in vitro; tested at: 200 nM; together with: Cy3 exosite-II aptamer, 400 nM; direction: higher = stronger binding; oligonucleotide: GGTTGGTGTGGTTGG
Target: Prothrombin, mature alpha-thrombin (F2, Homo sapiens, UniProt P00734)
Notes: whole 15-mer aptamer, many near background
Modification | mean fluorescence intensity
2'F-ANA at 1 2 6 10 11 14 15 | 49.2 a.u.
2'F-ANA at 1 3 4 6 7 8 10 11 12 | 89.3 a.u.
2'F-ANA at 1 2 3 4 5 7 8 9 10 11 12 13 | 49.7 a.u.
2'F-ANA at 3 5 8 9 11 | 150 a.u.
2'F-ANA at 1 3 5 7 9 10 13 15 | 52.9 a.u.
2'F-ANA at 3 6 7 9 11 12 14 | 510 a.u.
2'F-ANA at 1 2 3 5 6 8 9 10 12 13 | 50.2 a.u.
2'F-ANA at 1 2 3 4 5 9 10 14 | 95.8 a.u.
2'F-ANA at 1 2 3 4 7 8 9 10 11 15 | 65.6 a.u.
2'F-ANA at 2 4 8 10 11 12 14 | 81.6 a.u.
2'F-ANA at 2 3 4 6 7 9 11 14 15 | 177 a.u.
2'F-ANA at 1 3 4 6 7 9 10 11 12 13 14 15 | 55.2 a.u.
2'F-ANA at 2 4 6 7 8 10 | 89.4 a.u.
2'F-ANA at 1 5 6 8 12 13 15 | 82.1 a.u.
2'F-ANA at 1 2 6 7 11 15 | 117 a.u.
2'F-ANA at 1 2 4 5 8 12 14 15 | 62.4 a.u.
2'F-ANA at 1 3 6 8 10 11 14 | 62.6 a.u.
2'F-ANA at 1 3 4 5 8 9 10 | 56.4 a.u.
2'F-ANA at 1 3 4 5 7 8 9 10 11 12 13 14 15 | 50.5 a.u.
2'F-ANA at 5 6 13 14 15 | 46.3 a.u.
2'F-ANA at 4 8 11 | 367 a.u.

Series 3 — technique: DHFR PCA, deep sequencing; sample: yeast; together with: (+)-ABA 58 µM; baseline: wild-type fitted maximum; direction: higher = stronger binding
Target: ABI1, truncated, D143A, DHFR fusion (Arabidopsis thaliana)
Notes: methotrexate growth selection, single substitutions
Parent: PYL1, truncated, DHFR fusion (Arabidopsis thaliana); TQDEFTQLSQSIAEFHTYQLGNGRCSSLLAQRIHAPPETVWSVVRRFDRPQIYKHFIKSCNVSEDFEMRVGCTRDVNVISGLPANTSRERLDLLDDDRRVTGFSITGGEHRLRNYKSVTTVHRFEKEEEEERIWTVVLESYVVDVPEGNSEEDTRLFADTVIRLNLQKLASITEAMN; partner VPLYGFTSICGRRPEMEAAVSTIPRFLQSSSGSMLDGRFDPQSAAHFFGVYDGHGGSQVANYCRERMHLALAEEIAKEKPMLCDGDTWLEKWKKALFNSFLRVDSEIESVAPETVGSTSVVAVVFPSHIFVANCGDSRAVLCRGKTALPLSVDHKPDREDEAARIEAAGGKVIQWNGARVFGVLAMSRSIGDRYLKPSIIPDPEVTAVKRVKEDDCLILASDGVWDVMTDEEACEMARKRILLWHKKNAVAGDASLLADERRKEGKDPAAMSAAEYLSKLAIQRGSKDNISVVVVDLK
Variant | relative binding score [%]
L112W | -0.0873
S140F | 2.41
T101L | 89.9
H34P | 78
K168F | 45.9
A175Y | 71.9
L82A | 30.7
G148Q | 63.8
T86D | 78.1
T173H | 39.4
V145G | 1.06
F47V | -0.746
P50F | -9.05
F56E | 10
C25R | 4.96

Series 4 — target: FOSL2, bZIP domain (human); technique: DHFR protein complementation; sample: yeast; baseline: wild-type JUN-FOS pair; direction: higher = stronger binding
Notes: single substitutions, most at no-binding floor
Parent: JUN, bZIP domain (human); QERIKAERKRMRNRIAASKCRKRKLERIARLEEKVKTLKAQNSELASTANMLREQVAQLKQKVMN; partner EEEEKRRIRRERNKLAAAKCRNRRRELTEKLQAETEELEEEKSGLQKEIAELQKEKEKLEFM
Variant | binding fitness [natural log]
S47F | 0.09
E32C | 0.242
A29P | -0.188
A46H | 0.0564
T48D | -0.229
N42D | -1.35
E33A | 0.0378
K36N | 0.0991
E32Y | -0.151
K39R | 0.148
E54C | -0.158
Q41G | -0.0397
L45D | -1.17
K34G | 0.0725
A49Q | -0.395
L31V | -0.447
M51W | 0.0285
I28L | 0.0468
E33Q | -0.0218
S43W | -0.0984
E33C | -0.11
Q41D | -0.0449
A29L | -0.185

Excerpt of the above (series 2):
Modification | mean fluorescence intensity
2'F-ANA at 1 3 4 6 7 9 10 11 12 13 14 15 | 55.2 a.u.
2'F-ANA at 2 4 6 7 8 10 | 89.4 a.u.
2'F-ANA at 1 5 6 8 12 13 15 | 82.1 a.u.
2'F-ANA at 1 2 6 7 11 15 | 117 a.u.
2'F-ANA at 1 2 4 5 8 12 14 15 | 62.4 a.u.
2'F-ANA at 1 3 6 8 10 11 14 | 62.6 a.u.
